Experimental data pooled from the literature.
Every numbered part comes from another study and shows a few of its results, in no order.
Sequence of UniProt Q13283 (whole entry, looked up): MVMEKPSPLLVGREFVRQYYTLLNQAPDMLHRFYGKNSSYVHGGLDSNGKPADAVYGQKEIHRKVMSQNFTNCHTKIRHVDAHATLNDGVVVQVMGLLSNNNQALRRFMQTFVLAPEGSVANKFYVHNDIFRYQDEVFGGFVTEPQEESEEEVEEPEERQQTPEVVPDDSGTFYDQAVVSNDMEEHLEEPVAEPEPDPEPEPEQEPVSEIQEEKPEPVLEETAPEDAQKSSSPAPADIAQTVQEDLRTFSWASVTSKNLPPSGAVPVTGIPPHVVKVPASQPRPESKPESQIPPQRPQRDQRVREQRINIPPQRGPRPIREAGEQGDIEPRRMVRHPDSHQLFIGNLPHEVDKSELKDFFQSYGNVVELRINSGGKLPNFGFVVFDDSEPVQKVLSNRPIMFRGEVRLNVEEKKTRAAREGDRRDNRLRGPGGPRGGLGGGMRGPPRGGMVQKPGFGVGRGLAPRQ

Sample 1
Target: RNA binding protein fox-1 homolog 2, RRM domain, GST-SBP tag (RBFOX2, Homo sapiens, UniProt O43251-10, residues 100-194)
Technique: RNA Bind-n-Seq
Form: RNA
Medium: in vitro
Tested at: 365 nM
Setting: natural RNA segment, single round, ends assumed
Reference: no-protein control
Direction: higher = stronger binding
Residues (chain): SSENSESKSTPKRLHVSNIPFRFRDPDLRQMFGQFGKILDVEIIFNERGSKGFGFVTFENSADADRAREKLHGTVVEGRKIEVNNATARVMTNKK
| Oligonucleotide | RBNS enrichment (R) |
| --- | --- |
| GGGAGUUCUACAGUCCGACGAUCUAAAUGCUCUUAUUUACAGAUCAGAAAACUAACACCAGUGUCAGGAUCACAGUAUGGGAAUGACUGAUGUGACCUUGAAUGCAGCUUGGUUUGACUGACAUUAAAGCCAGUGGAAUUCUCGGGUGCCAA | 7.51 |
| GGGAGUUCUACAGUCCGACGAUCCACUAAAUCAUAGUUUAACACAGGAAUCAAAAUGGAAGCCACGGGGAGCAUAGCAUGUGGGUUUCUUUGUAGGAGGGCACUUAGGUCCCUUGCACACAGCCAUUCCCUAGUGGAAUUCUCGGGUGCCAA | 5.22 |
| GGGAGUUCUACAGUCCGACGAUCUCCUGUUCCACCUCAGGUUUUCACAGGUGCUCCCACCCCAGUUGAGGCUCCCACCCACAGGGCUGUCUGUCACAAACCCACCUCUGUUGGGAGCUAUUGAGCCACCUGGGUGGAAUUCUCGGGUGCCAA | 0.214 |
| GGGAGUUCUACAGUCCGACGAUCUUUAAACUGUUUUUUGCUUUUGCUUUUCCCUGACUCCCUUUGCUUGGAGUCAGCUGCACACCAGUAGUAUGGCAUGCUACGAUCAGGUUCUGUCCUGAAAGCUUUGCCUCUGGAAUUCUCGGGUGCCAA | 1.39 |

Sample 2
Target: Histone acetyltransferase KAT6A, winged helix 1, GST fusion (KAT6A, Homo sapiens, UniProt Q92794, residues 1-85)
Technique: protein binding microarray
Form: double-stranded DNA, one strand shown
Medium: in vitro
Tested at: not given
Setting: 8-mer, flanks averaged, mean of 2 arrays, mostly near background
Reference: not given
Direction: higher = stronger binding
Target sequence (chain): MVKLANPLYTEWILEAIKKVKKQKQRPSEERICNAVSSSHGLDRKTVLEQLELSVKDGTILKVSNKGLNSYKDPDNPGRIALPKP
| Oligonucleotide | E-score |
| --- | --- |
| AATAAAAA | -0.017 |
| AACGGAGA | 0.0191 |
| AGCTGCAT | -0.0748 |

Mixed results
| Substance | target | test | system | setting | scale | measurement | value |
| --- | --- | --- | --- | --- | --- | --- | --- |
| GGGAGUUCUACAGUCCGACGAUCCACAGACAACACGCACCCACACAGACACAGAGGGAAGGGGUUGGGAUGGGGACAGGGUGCACAGCAGGGCGGGGUAGCACCCCAGCCCCUUGGAAUUCUCGGGUGUCAAGG (7-deaza-guanosine replaces G) | Fragile X messenger ribonucleoprotein 1, C-terminal low-complexity region (Fmr1, Mus musculus, UniProt P35922) | RNA Bind-n-Seq | RNA, in vitro | 200 nM, whole 134-nt RNA, ends assumed, together with: 150 mM LiCl | reference: input library, higher = stronger binding | log2 enrichment | 1.62 |
| PhoQ, residues 284 288 289 292 302 303 SQSLSM | PhoP, residues 12 14 15 18 19 TTLRV (Escherichia coli, UniProt P23836) | Sort-seq, item: YFP reporter | E. coli | PhoQ-PhoP variant library, together with: 10 µM Mg2+ | reference: high Mg2+ state, higher = stronger signaling | fold induction | 1.4 |
| GGGAGUUCUACAGUCCGACGAUCUCAAGUCCUGUGCUACACAUCGUAUGUACCGAAUCGGAAAGGUUUUUGGUUUGGAAAGUAUUAUGUUACGCCGUUCGGAUCUGCACUUCCUGGAAUUCUCGGGUGUCAAGG | Ras GTPase-activating protein-binding protein 1, C-terminal RGG region (G3BP1, Homo sapiens, UniProt Q13283) | RNA Bind-n-Seq | RNA, in vitro | 1 µM, whole 134-nt RNA, ends assumed, together with: 150 mM KCl | reference: input library, higher = stronger binding | log2 enrichment | -1.47 |

Excerpt of the above (mixed results):
| Substance | target | test | system | setting | scale | measurement | value |
| --- | --- | --- | --- | --- | --- | --- | --- |
| GGGAGUUCUACAGUCCGACGAUCCACAGACAACACGCACCCACACAGACACAGAGGGAAGGGGUUGGGAUGGGGACAGGGUGCACAGCAGGGCGGGGUAGCACCCCAGCCCCUUGGAAUUCUCGGGUGUCAAGG (7-deaza-guanosine replaces G) | Fragile X messenger ribonucleoprotein 1, C-terminal low-complexity region (Fmr1, Mus musculus, UniProt P35922) | RNA Bind-n-Seq | RNA, in vitro | 200 nM, whole 134-nt RNA, ends assumed, together with: 150 mM LiCl | reference: input library, higher = stronger binding | log2 enrichment | 1.62 |
